# Measured values pooled from the literature.
# Several values in a cell are separate wells, animals, samples, runs or records.
# UCHL1: Ubiquitin carboxyl-terminal hydrolase isozyme L1 (UCHL1, Homo sapiens, UniProt P09936)
# Chain of UniProt P09936 (whole entry, looked up): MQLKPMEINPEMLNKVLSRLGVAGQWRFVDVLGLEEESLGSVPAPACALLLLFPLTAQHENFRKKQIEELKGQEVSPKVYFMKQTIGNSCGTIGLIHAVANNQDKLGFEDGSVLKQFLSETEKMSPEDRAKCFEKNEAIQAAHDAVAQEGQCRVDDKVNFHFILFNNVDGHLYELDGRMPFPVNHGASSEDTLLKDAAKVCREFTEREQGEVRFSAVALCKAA
SMILES,target or system,assay,test system,conditions,scale,measurement,value
Cc1cc(C)n(C(=S)[S][Au][PH](CCCCCC[PH]([Au][S]C(=S)n2nc(C)cc2C)(c2ccccc2)c2ccccc2)(c2ccccc2)c2ccccc2)n1,Malme-3M,"cell growth, NCI-60 screen",,melanoma,,log TGI,> -4 log10 M
CCCCN1CCN(c2ccc3[nH]c(-c4ccc5[nH]c(-c6ccc(C(F)(F)F)cc6)nc5c4)nc3c2)CC1,Malme-3M,SRB,,"10 µM, 48 h",,growth percent,-74.2%
O=C(Nc1nnc2n3c(Cc4ccccc4)n[nH]c3nc(-c3ccc(Cl)cc3)c1-2)c1ccccc1,Malme-3M,SRB,,"10 µM, NCI60 single-dose screen",relative to: untreated,cell growth,93.5%
CCOc1ccc(-c2nc3cc(-c4nc5cc(N6CCN(C)CC6)ccc5[nH]4)ccc3[nH]2)cc1OCC,Malme-3M,SRB,,"10 µM, 48 h",,growth percent,-34.7%
O=C(Nc1nnc2n3c(=S)[nH][nH]c3nc(-c3ccc(Cl)cc3)c1-2)c1ccccc1,Malme-3M,SRB,,"10 µM, NCI60 single-dose screen",relative to: untreated,cell growth,98.5%
O=C1NCCc2[nH]c(-c3ccncc3)cc21,Malme-3M,"cytotoxicity, MTS",NCI60 panel,melanoma,,IC50,3.05 µM
O=C(Nc1nnc2n3c(nc(-c4ccc(Cl)cc4)c1-2)SCC3=O)c1ccccc1,Malme-3M,SRB,,"10 µM, NCI60 single-dose screen",relative to: untreated,cell growth,92.2%
CCCCN1CCN(c2ccc3[nH]c(-c4ccc5[nH]c(-c6ccc(OCC)c(OCC)c6)nc5c4)nc3c2)CC1,Malme-3M,SRB,,"10 µM, 48 h",,growth percent,9.35%
Cc1cc(-c2ccccc2)n(-c2nc(-c3ccc(Cl)cc3)c3c(NC(=O)c4ccccc4)nnc-3[nH]2)n1,Malme-3M,SRB,,"10 µM, NCI60 single-dose screen",relative to: untreated,cell growth,97%
N#CC(=Cc1ccccc1[N+](=O)[O-])C(=O)Nc1ccc2c(c1)OCCO2,UCHL1,"covalent, intact protein LC-MS",,12.5 µM,,labelling,17.4%
CCOC(=O)CSc1nc(-c2ccc(Cl)cc2)c2c(NC(=O)c3ccccc3)nnc-2[nH]1,Malme-3M,SRB,,"10 µM, NCI60 single-dose screen",relative to: untreated,cell growth,85.1%
O=C1NC(=NCc2cccs2)S/C1=C\c1ccc2ncccc2c1,Malme-3M,"cytotoxicity, MTS",NCI60 panel,melanoma,,IC50,> 10 µM
C#C[C@@]1(O)[C@@H](CO)O[C@@H](n2cc(I)c3c(N)ncnc32)[C@@H]1O,Malme-3M,SRB,,NCI-60 screen,,TGI,2.76 µM and 4.16 µM
CCN(CC)c1ccc(C=NNC(=O)CSc2nc3ccccc3c(=O)n2Cc2ccc(S(N)(=O)=O)cc2)c(O)c1,Malme-3M,NCI five-dose screen,,,,TGI,> 100 µM
CCCN1CCN(c2ccc3nc(-c4ccc5nc(-c6cc(OC)ccc6OC)[nH]c5c4)[nH]c3c2)CC1,Malme-3M,SRB,,"10 µM, 48 h",,growth percent,139%
CC1CN(CCOCCSc2ccc(Cl)cc2)CC(C)O1.O=C(O)C(=O)O (centres unmarked),Trypanosoma cruzi,"reporter translation, Renilla luciferase mRNA translation",cell-free extract,40 µM,relative to: DMSO,inhibition,-6.9%
Cn1cncc1C1=CN(c2ncnc3[nH]cnc23)CCS1,Malme-3M,,,melanoma cell line,,GI50,19.1 µM
COc1ccc2[nH]cc(C(=O)CC#N)c2c1,UCHL1,"covalent, intact protein LC-MS",,12.5 µM,,labelling,3.65%
CCCCN1CCN(c2ccc3nc(-c4ccc5nc(-c6cc(OC)ccc6OC)[nH]c5c4)[nH]c3c2)CC1,Malme-3M,SRB,,"10 µM, 48 h",,growth percent,119%
C#C[C@@]1(O)[C@@H](CO)O[C@@H](n2ccc3c(N)ncnc32)[C@@H]1O,Malme-3M,SRB,,NCI-60 screen,,TGI,5.55 µM

# Repeated from above:
SMILES,target or system,assay,test system,conditions,scale,measurement,value
CCCCN1CCN(c2ccc3[nH]c(-c4ccc5[nH]c(-c6ccc(OCC)c(OCC)c6)nc5c4)nc3c2)CC1,Malme-3M,SRB,,"10 µM, 48 h",,growth percent,9.35%
Cc1cc(-c2ccccc2)n(-c2nc(-c3ccc(Cl)cc3)c3c(NC(=O)c4ccccc4)nnc-3[nH]2)n1,Malme-3M,SRB,,"10 µM, NCI60 single-dose screen",relative to: untreated,cell growth,97%
N#CC(=Cc1ccccc1[N+](=O)[O-])C(=O)Nc1ccc2c(c1)OCCO2,UCHL1,"covalent, intact protein LC-MS",,12.5 µM,,labelling,17.4%
